Experimental data from different studies.
A part holds a random share of what one study measured.

Block 1
Target: Replicase polyprotein 1ab, main protease (rep, Severe acute respiratory syndrome coronavirus 2, UniProt P0DTD1)
Read-out: enzyme activity
Mode: inhibitor
Concentration: 20 µM
Notes: primary screen
Structure (SMILES)	inhibition
O=C1c2cccc(O)c2C(=O)c2c(O)cccc21	25.2%
C=C1c2cccc(O)c2C(=O)C2=C(O)[C@]3(O)C(=O)C(C(N)=O)=C(O)[C@@H](N(C)C)[C@@H]3[C@@H](O)[C@H]12	95.2%
CC(C)Nc1cccnc1N1CCN(C(=O)c2cc3cc(NS(C)(=O)=O)ccc3[nH]2)CC1.CS(=O)(=O)O	82%
CCOC(=O)/C=C(C)/C=C/C=C(C)/C=C/c1c(C)cc(OC)c(C)c1C	25.6%
O=[N+]([O-])c1ccc2c(c1)S(=O)(=O)C=C2	38%

Block 2
Target: Replicase polyprotein 1ab, polymerase (rep, Severe acute respiratory syndrome coronavirus 2, UniProt P0DTD1)
Read-out: enzyme activity
Mode: inhibitor
Concentration: 20 µM
Structure (SMILES)	inhibition [%]
CC(C)NCCN(C(C)C)S(=O)(=O)c1ccc(Cl)cc1Cl	-4.19
O=C(O)Cc1cccc2c(=O)cc(-c3ccccc3)oc12	2.52
OC[C@H]1NC[C@@H](O)[C@@H](O)[C@@H]1O	1.9
CC(C)[C@@H]1CC[C@@H](C)C[C@@H]1P(=O)(c1ccccc1)c1ccccc1	-7.42
CC(CCc1ccc(O)cc1)NCCc1ccc(O)c(O)c1 (stereo not drawn)	-8.43
COc1cc(OC)cc(C(=O)NNC(=O)Nc2cccc3ccccc23)c1	-2.39
CN1CCC(=C2c3ccccc3Sc3ccccc32)CC1	13.8
CC(=O)OCC1=C(C(=O)O)N2C(=O)[C@@H](NC(=O)CSC(=NC(C)C)NC(C)C)[C@H]2SC1	0.84
O=C(NCCNCC(O)COc1ccc(O)cc1)N1CCOCC1 (stereo not drawn)	-5.99
COC[C@@H](c1ccc(C(F)(F)F)cc1)N1CCN(C2(C)CCN(C(=O)c3c(C)ncnc3C)CC2)C[C@@H]1C	-0.75
O=[N+]([O-])C(Br)(CO)CO	0.29
Cc1[nH]nc(C(F)(F)F)c1Cc1sc2c(c1C(=O)N1C[C@](C)(O)CO1)c(=O)n(C)c(=O)n2C(C)C	-0.35
COC(=O)C1=C(C#N)NC(C)=C(C(=O)OC(C)C)C1c1cccc([N+](=O)[O-])c1 (stereo not drawn)	2.8
CC1(C)Oc2ccc(C#N)cc2[C@@H](N2CCCC2=O)[C@@H]1O	1.51
C=C1/C(=C\C=C2/CCC[C@]3(C)[C@@H]([C@H](C)/C=C/[C@@H](O)C4CC4)CC[C@@H]23)C[C@@H](O)C[C@@H]1O	-6.14
C[C@]12CCC(=O)C(O)=C1CC[C@@H]1[C@@H]2CC[C@]2(C)C(=O)CC[C@@H]12	0.44
NC(=O)c1nc(F)cnc1O	2.79
Cc1onc(-c2c(F)cccc2Cl)c1C(=O)N[C@@H]1C(=O)N2[C@@H]1SC(C)(C)[C@@H]2C(=O)O	0.84
Cc1cnc(NC(=O)Nc2cc(Br)c(C)cc2OC[C@@H]2CNCCO2)cn1	2.21
CCN1/C(=C/C(C)=O)Sc2ccc(OC)cc21	-0.81
O=C1CCC2CCC(=O)N12	-2.36
O=C(O)c1ccccc1C(=O)Nc1ccc(-c2ccccc2)cc1	3.8
CCOC(=O)[C@H](CCc1ccccc1)N[C@@H](C)C(=O)N(CC(=O)O)C1Cc2ccccc2C1	-0.52
Clc1ccc(CCC(Cn2ccnc2)Sc2c(Cl)cccc2Cl)cc1 (stereo not drawn)	-4.59
CO/N=C(\C(=O)N[C@@H]1C(=O)N2C(C(=O)O)=C(COC(N)=O)CS[C@H]12)c1ccco1	0.63

Block 3
Cell line: HEK-293T-ACE2
Concentration: concentration not given
Relative to: vehicle
SMILES	cell number [%]
COc1cc2nccc(Oc3ccc(NC(=O)C4(C(=O)Nc5ccc(F)cc5)CC4)cc3)c2cc1OC.O=C(O)C[C@H](O)C(=O)O	76.8
CC(C)C[C@H](NC(=O)[C@H](Cc1ccccc1)NC(=O)c1cnccn1)B(O)O	71.6
CNC[C@H](O)[C@@H](O)[C@H](O)[C@H](O)CO.CNC[C@H](O)[C@@H](O)[C@H](O)[C@H](O)CO.C[C@@H](O[C@H]1OCCN(Cc2nn(P(=O)(O)O)c(=O)[nH]2)[C@H]1c1ccc(F)cc1)c1cc(C(F)(F)F)cc(C(F)(F)F)c1	99.1

Block 4
Target: Histone acetyltransferase KAT6A, both winged helices, GST fusion (KAT6A, Homo sapiens, UniProt Q92794, residues 1-181)
Technique: protein binding microarray
Molecule type: double-stranded DNA, one strand shown
Sample: in vitro
Concentration: not given
Notes: 8-mer, flanks averaged, mean of 2 arrays, mostly near background
Relative to: not given
Direction: higher = stronger binding
Residues (chain): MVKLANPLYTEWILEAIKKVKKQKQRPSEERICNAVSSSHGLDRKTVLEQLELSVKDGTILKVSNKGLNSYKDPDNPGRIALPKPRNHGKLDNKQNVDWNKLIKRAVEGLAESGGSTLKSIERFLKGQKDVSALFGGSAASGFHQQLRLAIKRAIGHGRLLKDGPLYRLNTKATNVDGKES
Sequence	E-score
AAAAGATT	-0.0333
CCCGACCA	-0.03
CATGCGGC	0.209
AGCAGGGA	-0.24
TGATAGCA	-0.123
AATCCATG	-0.118
GCGGGGCC	0.269
AGTCATAC	-0.176

Block 5
Target: RNA binding protein fox-1 homolog 2, RRM domain, GST-SBP tag (RBFOX2, Homo sapiens, UniProt O43251-10, residues 100-194)
Technique: RNA Bind-n-Seq
Molecule type: RNA
Sample: in vitro
Concentration: 365 nM
Notes: natural RNA segment, single round, ends assumed
Relative to: no-protein control
Direction: higher = stronger binding
Shared flanks, not repeated: GGGAGUUCUACAGUCCGACGAUC … UGGAAUUCUCGGGUGCCAA
Construct (chain): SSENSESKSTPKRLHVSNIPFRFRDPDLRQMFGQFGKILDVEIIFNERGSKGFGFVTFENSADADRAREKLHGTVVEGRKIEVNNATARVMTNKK
Sequence	RBNS enrichment (R)
UGCCCCUCACCCCCUGAAAAGCUGACUCACUGUGAGUGACCUUGGGCAAGUCCCCAAACCUCCUUGUGCCUCAGUUUCCCCAUCUGGAAAAAAUGGGGCCACCUCUUGCC	0.388
UGGGUUGCUAACUGAACUUUGAAGACCCGCUACAAAACGCGCAGAUGUGCAGCAGAUUGGAAGGAGACACAGAUGUUCGGUUUUUUUCCUGUUUCUGAAAAGAAAUAAUA	0.356
UUUUUCAUAAACUGGACCAUAAUUCUUCAUGUUUACCAUGGAGAGUUUUACAGAAAUUUGGCUGCACUCUGAGAGUGCUUACUCACAGUUUAUUUGCUUUUUUUAAAAAG	0.296
UGGCAGUAGGGUCAUGAUGUUGGGAAGGGUGUAGUGCCCUAGGUUGGUGACAGAAGGGACAGACACUUGUGCACAGGUGUCUUUGGUGAUGGGGUUUUUUUUUUUAUAAC	0.89
AUUUAAAAGGAUGGCAAGUUGCAUCAGAAAGCUUUAUUUUGAGAUGUAAAAAGAUUCCCAAACGUGGUUACAUUAGCCAUUCAUGUAUGUCAGAAGUGCAGAAUUGGGGC	0.602
UUAUAUACUAUGAGAUAGUGAGGGAGUAUAGAAGUGAAAACCAGGUGUCUGUUCUUGCCCUUAAUAUUAUAAGUGGCAUAAAUGUCACACCAUUGCAAAGAACGGGAGAA	0.374
UGCUUCUUUUAUUAGUAAUGUGGAUUGAUGUUUUCUCAGAGUAACUCGUUGUCUUUUCGCUUGAAAUUUUUGAUCUUGUCCUGAAGACUAGCUGCUGCUAAAACAAUGCU	0.432
UUUUUUUCUAAGGUUUAAGCACAUGCCUUUUGUAUUAUGCAGUAUAUAAUGGGUGUGCAGCCAUAGCGAAGCUUUGAGAAGCCCCAAGCCUCAACUGUAACCUGCAGCAA	0.488

Block 6
Target: Ras GTPase-activating protein-binding protein 1, C-terminal RGG region (G3BP1, Homo sapiens, UniProt Q13283)
Sequence of UniProt Q13283 (whole entry, looked up): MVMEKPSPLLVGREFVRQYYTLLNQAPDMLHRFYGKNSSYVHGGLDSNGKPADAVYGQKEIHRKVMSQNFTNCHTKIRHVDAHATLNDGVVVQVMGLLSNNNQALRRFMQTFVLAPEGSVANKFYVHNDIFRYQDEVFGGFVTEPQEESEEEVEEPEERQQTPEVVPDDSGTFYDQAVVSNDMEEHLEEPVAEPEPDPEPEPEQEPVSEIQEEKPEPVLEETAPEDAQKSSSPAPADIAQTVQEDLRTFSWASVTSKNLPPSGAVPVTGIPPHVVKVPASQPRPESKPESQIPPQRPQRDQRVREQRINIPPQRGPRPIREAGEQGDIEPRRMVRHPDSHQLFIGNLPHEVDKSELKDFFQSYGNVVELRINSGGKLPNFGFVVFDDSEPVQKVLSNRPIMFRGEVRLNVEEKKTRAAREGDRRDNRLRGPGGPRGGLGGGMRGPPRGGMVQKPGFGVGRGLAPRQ
Technique: RNA Bind-n-Seq
Molecule type: RNA
Sample: in vitro
Concentration: 1 µM
Notes: whole 134-nt RNA, ends assumed
Together with: 150 mM KCl
Relative to: input library
Direction: higher = stronger binding
Shared flanks, not repeated: GGGAGUUCUACAGUCCGACGAUC … UGGAAUUCUCGGGUGUCAAGG
Sequence	log2 enrichment
UCAAGUCCUGUGCUACACAUCGUAUGUACCGAAUCGGGUUGGGGUUGGGGUUGGGAAAGUAUUAUGUUACGCCGUUCGGAUCUGCACUUC	2.52
UGGGAGGUGGAUUUUGUUUAUUUUUUUAGCUCAUUUCCAGGGGUGGGAAUUUUUUUUUAAUAUGUGUCAUGAAUAACGUUGUUUUUGAAA	1.48
CCUCAAGUCCUGUGCUACACAUCGUAUGUACCGAAUCGGGGCCGGCCGGCCGGAAAGUAUUAUGUUACGCCGUUCGGAUCUGCACUUCCA	-1.07
UGGGAGGUGGAUUUUGUUUAUUUUUUUAGCUCAUUUCCAGGGGUGGGAAUUUUUUUUUACUAUGUGUCAUGAAUAAAGUUGUUUUUGAAA	3.59
AAGUCCUGUGCUACACAUCGUAUGUACCGAAUCGGGAAAAAAAGGGUGGGUUUGGGAAAGUAUUAUGUUACGCCGUUCGGAUCUGCACUU	1.06
CCUCAAGUCCUGUGCUACACAUCGUAUGUACCGAAUCGGGCGGCGGGGCGGGAAAGUAUUAUGUUACGCCGUUCGGAUCUGCACUUCCAG	0.704
UGGCCCCGGUGGCAUGCGGGGAGGAAGAGGUGGCCUCAUGGAUCGUGGUGGUCCCGGUGGAAUGUUCAGAGGUGGCCGUGGUGGAGACAG	2.17
AGUCCUGUGCUACACAUCGUAUGUACCGAAUCGGGUUUUUGGGAAAAAGGGAAAGGGAAAGUAUUAUGUUACGCCGUUCGGAUCUGCACU	0.36

Excerpt of the above (block 2):
Structure (SMILES)	inhibition [%]
Cc1[nH]nc(C(F)(F)F)c1Cc1sc2c(c1C(=O)N1C[C@](C)(O)CO1)c(=O)n(C)c(=O)n2C(C)C	-0.35
Cc1onc(-c2c(F)cccc2Cl)c1C(=O)N[C@@H]1C(=O)N2[C@@H]1SC(C)(C)[C@@H]2C(=O)O	0.84
CC(C)NCCN(C(C)C)S(=O)(=O)c1ccc(Cl)cc1Cl	-4.19
NC(=O)c1nc(F)cnc1O	2.79
